Experimental data of several laboratories.
Lines come from different studies, so protocols differ. ± gives the spread as reported.

SMILES | test | test system | conditions | scale | quantity | value
CC(C)[C@H](NC(=O)[C@H](Cc1c[nH]c2ccccc12)NC(=O)[C@H](Cc1ccccc1)NC(=O)[C@@H](NC(=O)[C@@H](NC(=O)[C@H](CCCCN)NC(=O)[C@@H](N)CCCCN)C(C)C)C(C)C)C(=O)N[C@@H](CCCCN)C(=O)N[C@@H](Cc1ccccc1)C(=O)N[C@@H](CCCCN)C(N)=O | ELISA | mouse, blood | intravenous, 500 µg/kg, 5 days |  | IL-6 level | 0.59 ± 0.04 ng/mL
O=C(NCCCCn1ccc2ccccc21)Oc1ccccc1 |  | rat liver S9 fraction | 30 min, together with: NADPH |  | parent remaining | 53 ± 5%
CCCCCCCCCCCCC(=O)O.O=C1CCCC2C3CCCN4CCCC(CN12)C34 (stereo not drawn) | shake-flask | ultrapure water | pH 7.0, 37 °C |  | log octanol-water partition coefficient | 0.65
C[C@]12CC[C@H](O)CC1CCC1C2[C@H](O)C(=O)[C@]2(C)[C@@H](c3ccc(=O)oc3)CC[C@]12O (stereo partly drawn) | sulfation, substrate | guinea pig liver cytosol | pH 7.4 |  | Km | 19.3 ± 1.6 µM
CC1=CC=c2ccc3c4c2[N]1[Re](=[C]=O)(=[C]=O)(=[C]=O)([C]#[N+]c1ccc(Cl)cc1)[N]4C(C)=CC=3.O=S(=O)([O-])C(F)(F)F |  | PBS | pH 7.4, nitrogen-saturated |  | luminescence lifetime | 5.6 µs
[2H]C([2H])([2H])C([2H])([2H])C([2H])([2H])OC(C(=O)OC1CCNCC1)(c1ccccc1)c1ccccc1 | refers to: boredom | healthy Japanese male | oral, 10 mg, 16 days, multiple ascending dose |  | adverse events | 14.3%
[11CH3]n1c(=O)n(CCCO)c(=O)c2c1nc(Oc1cccc(OC(F)(F)F)c1)n2Cc1ccc(Cl)cc1 | ex vivo biodistribution | Sprague Dawley rat, lung | 60 min post injection |  | tracer uptake | 0.63 ± 0.13 %ID/g
CCCC(=O)OC1O[C@@H]2O[C@@]3(C)CC[C@H]4[C@H](C)CCC([C@H]1C)[C@@]24OO3 (stereo partly drawn) |  | Tg(fli1:EGFP) zebrafish embryos | 10 µg/mL, up to 48 hpf |  | dead embryos | 3 count
CCNc1cc2[o+]c3cc(NCC)c(C)cc3c(-c3ccccc3C(=O)OCCOCC[18F])c2cc1C | PET | rat | 35 min p.i. |  | heart to liver ratio | 4.2
CC(C)C[C@@H](/C=C/[C@H](Cc1ccccc1)C(=O)N1CCC[C@H]1C(=O)N[C@H](C(=O)N[C@@H](CCCNC(=O)OCc1ccccc1)C(=O)NC1CC(C)(C)N([O])C(C)(C)C1)C(C)C)NC(=O)OC(C)(C)C | metabolic stability | male mouse, liver microsomes | 1 h |  | compound remaining | 13%
CC(C)[C@H](NC(=O)CNC(=O)[C@H](CCC(N)=O)NC(=O)[C@H](C)N)C(=O)O | unlikely related or unrelated | human | 45 mg/kg/h, 2 h, continuous infusion |  | subjects with adverse events | 50%
CC(C)C[C@H](NC(=O)CN)C(=O)NCC(=O)N[C@@H](CCCCN)C(=O)N[C@@H](CC(C)C)C(=O)N[C@@H](CC(C)C)C(=O)N[C@@H](Cc1c[nH]cn1)C(=O)N[C@@H](C)C(=O)N[C@@H](C)C(=O)N[C@@H](CCCCN)C(=O)N[C@@H](CCCCN)C(=O)N[C@@H](CC(C)C)C(=O)NCC(=O)N[C@@H](CCCCN)C(=O)N[C@@H](C)C(=O)N[C@@H](Cc1c[nH]c2ccccc12)C(=O)N[C@@H](CC(C)C)C(=O)NCC(=O)N[C@@H](CCC(=O)O)C(=O)N[C@@H](CC(C)C)C(=O)N[C@@H](CC(C)C)C(=O)N[C@@H](C)C(=O)N[C@@H](C)C(=O)O | circular dichroism | phosphate buffer 10 mM | 1 to 5 µM, pH 7.5, approximate |  | helicity | ~10%
COC(=O)C[C@](O)(CCCC(C)(C)OC(C)=O)C(=O)O[C@@H]1C(OC)=C[C@]23CCCN2CCc2cc4c(cc2[C@H]13)OCO4 |  | CD1 mouse, lung | oral, 1 mg/kg, 24 h, below quantification limit 1.00 ng/mL |  | tissue concentration | not detected
CC(C)C[C@H](NC(=O)[C@H](CCCCN)NC(=O)[C@H](CCC(=O)O)NC(=O)[C@H](C)NC(=O)[C@@H](NC(=O)[C@H](CCCCN)NC(=O)[C@H](CC(=O)O)NC(=O)[C@H](Cc1ccc(O)cc1)NC(=O)[C@H](Cc1ccccc1)NC(=O)[C@H](C)NC(=O)[C@H](CCCCN)NC(=O)[C@H](CC(C)C)NC(=O)[C@H](Cc1c[nH]c2ccccc12)NC(=O)[C@@H](N)CC(=O)O)C(C)C)C(=O)N[C@@H](CCCCN)C(=O)N[C@@H](CCC(=O)O)C(=O)N[C@@H](C)C(=O)N[C@@H](Cc1ccccc1)C(=O)N1CCC[C@H]1C(=O)N[C@@H](CC(=O)O)C(=O)N[C@@H](Cc1c[nH]c2ccccc12)C(=O)N[C@@H](C)C(=O)N[C@@H](CCCCN)C(=O)N[C@@H](C)C(=O)N[C@@H](C)C(=O)N[C@@H](Cc1ccc(O)cc1)C(=O)N[C@@H](CC(=O)O)C(=O)N[C@@H](CCCCN)C(=O)N[C@@H](C)C(=O)N[C@@H](C)C(=O)N[C@@H](CCC(=O)O)C(=O)N[C@@H](CCCCN)C(=O)N[C@@H](C)C(=O)N[C@@H](CCCCN)C(=O)N[C@@H](CCC(=O)O)C(=O)N[C@@H](C)C(=O)N[C@@H](C)C(=O)O |  | cynomolgus monkey female, plasma | intravenous infusion, 25 mg/kg every other day, day 27 |  | clearance | 0.117 mL/min/kg
CC(=O)N(O)CCC[C@@H]1NC(=O)CNC(=O)[C@H](CO)NC(=O)CNC(=O)[C@H](CCCN(O)C(C)=O)NC(=O)[C@H](CCCN(O)C(C)=O)NC1=O [gallium-68 labelled] |  | BALB/c mice, noninfected, blood | intravenous, dose not given, 90 min |  | blood level | 16.1 ± 1.07 %ID/g
CC(C)(CCCC/C=C/CCCCCC(C)(C)C(=O)O)C(=O)O |  | beagle dog, plasma | oral, 5 mg/kg |  | AUC(0-t) | 419 µg·h/mL
C[C@H](O)[C@@H](NC(=O)[C@H]1CCCN1C(=O)[C@@H](CCCCN)NC(=O)[C@@H](CO)NC(=O)[C@@H](Cc1ccc(O)cc1)NC(=O)[C@@H](CC(N)=O)NC(=O)CCOCCOCCOCCNC(=O)CN1CCN(CC(=O)O)CCN(CC(=O)O)CCN(CC(=O)O)CC1)C(=O)N[C@H](CC(=O)O)C(=O)N[C@H](CCCNC(=N)N)C(=O)N[C@H](CCC(N)=O)C(=O)N[C@H](Cc1ccc(O)cc1)C(=O)N[C@H](Cc1c[nH]cn1)C(=O)N[C@H](Cc1ccccc1)C(N)=O [copper-64 labelled] | quantitative PET | C57BL/6J mice, heart, liver and kidney | intravenous |  | time to distribution and elimination | ≤ 20 min
c1ccc(/N=c2\oc3ccccc3cc2-c2ccccc2)cc1 |  | male albino rat | oral, 24 h |  | LD50 | > 200 mg/kg
O=C(NC1CCCCC1)Oc1ccc(O)c(-c2ccccc2)c1 |  | rat liver S9 fraction | together with: NADPH-regenerating system |  | log hydrolysis rate constant | -0.94
CSCC[C@@H]1NC(=O)[C@@H]2CSSC[C@H](NC(=O)[C@H](CO)NC(=O)[C@H](C)N)C(=O)N[C@@H](CCCNC(=N)N)C(=O)N[C@@H]([C@@H](C)O)C(=O)N3CCC[C@H]3C(=O)N[C@@H](CCCCN)C(=O)N[C@@H](CC(=O)O)C(=O)N[C@H]3CSSC[C@H](NC(=O)[C@H](CCCCN)NC(=O)[C@H](CCCNC(=N)N)NC(=O)[C@H](CC(N)=O)NC1=O)C(=O)N[C@@H](CCCCN)C(=O)N[C@H]1CSSC[C@H](NC(=O)[C@@H]4CCCN4C(=O)[C@H](CC(=O)O)NC(=O)[C@H](C)NC3=O)C(=O)N[C@@H](C)C(=O)N[C@@H](CCCCN)C(=O)N[C@@H](CCC(=O)O)C(=O)N[C@@H]([C@@H](C)O)C(=O)NCC(=O)N[C@@H](CSSC[C@@H](C(N)=O)NC(=O)[C@H](CCCNC(=N)N)NC(=O)[C@H](CC(N)=O)NC1=O)C(=O)N1CCC[C@H]1C(=O)N[C@@H](Cc1ccc(O)cc1)C(=O)NCC(=O)N[C@@H](CCCCN)C(=O)N2 |  | DA rat pristane-induced arthritis, serum | subcutaneous, 0.1 mg/kg every other day, 21 days |  | Potassium | 4.68 mmol/L
CSCC[C@H](NC(=O)[C@H](CC(N)=O)NC(=O)[C@@H](N)Cc1ccccc1)C(=O)N[C@@H](CCC(N)=O)C(=O)N[C@@H](C)C(=O)N[C@@H](CCC(N)=O)C(=O)N[C@@H](CCCNC(=N)N)C(=O)N[C@@H](CCCNC(=N)N)C(=O)N[C@@H](Cc1ccccc1)C(=O)N[C@@H](Cc1ccc(O)cc1)C(=O)N[C@@H](CCC(=O)O)C(=O)N[C@@H](C)C(=O)N[C@@H](CC(C)C)C(=O)N[C@@H](Cc1c[nH]cn1)C(=O)N[C@@H](CC(=O)O)C(=O)NCC(=O)NCC(=O)NCC(=O)NCC(=O)N[C@@H](CO)C(=O)N[C@@H](C)C(=O)N[C@@H](CCC(=O)O)C(=O)N[C@@H](C)C(=O)N[C@@H](CCC(=O)O)C(=O)N[C@@H](C)C(=O)N[C@@H](CCCCN)C(=O)N[C@@H](C)C(=O)N[C@@H](CCCCN)C(=O)N[C@@H](C)C(=O)N[C@@H](CCC(=O)O)C(=O)N[C@@H](C)C(=O)N[C@@H](CCC(=O)O)C(=O)N[C@@H](C)C(=O)N[C@@H](CCCCN)C(=O)N[C@@H](C)C(=O)N[C@@H](CCCCN)C(=O)O | TEM | PBS |  | up to | fibril length | ≤ 1 µm

Some of these lines once more:
SMILES | test | test system | conditions | scale | quantity | value
CSCC[C@H](NC(=O)[C@H](CC(N)=O)NC(=O)[C@@H](N)Cc1ccccc1)C(=O)N[C@@H](CCC(N)=O)C(=O)N[C@@H](C)C(=O)N[C@@H](CCC(N)=O)C(=O)N[C@@H](CCCNC(=N)N)C(=O)N[C@@H](CCCNC(=N)N)C(=O)N[C@@H](Cc1ccccc1)C(=O)N[C@@H](Cc1ccc(O)cc1)C(=O)N[C@@H](CCC(=O)O)C(=O)N[C@@H](C)C(=O)N[C@@H](CC(C)C)C(=O)N[C@@H](Cc1c[nH]cn1)C(=O)N[C@@H](CC(=O)O)C(=O)NCC(=O)NCC(=O)NCC(=O)NCC(=O)N[C@@H](CO)C(=O)N[C@@H](C)C(=O)N[C@@H](CCC(=O)O)C(=O)N[C@@H](C)C(=O)N[C@@H](CCC(=O)O)C(=O)N[C@@H](C)C(=O)N[C@@H](CCCCN)C(=O)N[C@@H](C)C(=O)N[C@@H](CCCCN)C(=O)N[C@@H](C)C(=O)N[C@@H](CCC(=O)O)C(=O)N[C@@H](C)C(=O)N[C@@H](CCC(=O)O)C(=O)N[C@@H](C)C(=O)N[C@@H](CCCCN)C(=O)N[C@@H](C)C(=O)N[C@@H](CCCCN)C(=O)O | TEM | PBS |  | up to | fibril length | ≤ 1 µm
